Results of several laboratories.
Parts stem from different laboratories: compare values within a part only. Substitutions count along the parent as printed.
UniProt P20309, sequence (whole entry, looked up): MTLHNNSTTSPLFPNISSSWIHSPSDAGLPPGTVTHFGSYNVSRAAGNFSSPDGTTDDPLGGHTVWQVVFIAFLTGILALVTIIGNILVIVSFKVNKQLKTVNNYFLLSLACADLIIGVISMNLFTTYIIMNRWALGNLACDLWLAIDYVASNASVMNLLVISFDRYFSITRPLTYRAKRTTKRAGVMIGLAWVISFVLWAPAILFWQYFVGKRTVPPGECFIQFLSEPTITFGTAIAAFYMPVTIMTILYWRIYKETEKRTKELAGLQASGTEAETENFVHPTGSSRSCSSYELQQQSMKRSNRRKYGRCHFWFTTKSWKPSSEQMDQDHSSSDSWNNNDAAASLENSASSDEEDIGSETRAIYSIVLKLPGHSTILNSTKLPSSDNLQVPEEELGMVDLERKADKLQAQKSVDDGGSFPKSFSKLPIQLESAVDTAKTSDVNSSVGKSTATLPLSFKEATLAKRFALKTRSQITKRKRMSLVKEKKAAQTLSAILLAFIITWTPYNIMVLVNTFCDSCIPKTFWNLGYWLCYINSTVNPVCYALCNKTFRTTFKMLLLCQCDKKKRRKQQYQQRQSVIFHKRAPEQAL

Study 1
Target: Hepatocyte nuclear factor 3-alpha (Foxa1, Mus musculus, UniProt P35582, residues 1-468, full length assumed)
UniProt P35582, sequence (whole entry, looked up): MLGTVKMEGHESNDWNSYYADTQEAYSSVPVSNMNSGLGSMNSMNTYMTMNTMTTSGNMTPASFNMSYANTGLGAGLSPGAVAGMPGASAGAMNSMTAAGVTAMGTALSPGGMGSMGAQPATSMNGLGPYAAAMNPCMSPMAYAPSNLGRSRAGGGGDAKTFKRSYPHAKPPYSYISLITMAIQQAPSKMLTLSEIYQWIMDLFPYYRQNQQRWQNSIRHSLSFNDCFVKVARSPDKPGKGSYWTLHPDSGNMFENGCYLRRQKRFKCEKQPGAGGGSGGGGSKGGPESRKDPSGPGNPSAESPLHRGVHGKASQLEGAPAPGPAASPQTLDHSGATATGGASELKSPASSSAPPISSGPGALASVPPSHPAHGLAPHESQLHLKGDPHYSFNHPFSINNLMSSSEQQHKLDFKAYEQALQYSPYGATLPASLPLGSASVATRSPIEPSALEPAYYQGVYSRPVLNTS
Method: EMSA with sequencing
Molecule type: double-stranded DNA, one strand shown
Medium: in vitro
Concentration: 10 and 20 nM
Notes: whole designed probe, mean of two concentrations, ends assumed
Relative to: negative control set to 0
Reading: higher = stronger binding
Strand | normalised bound fraction
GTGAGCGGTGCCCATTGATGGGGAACTTCATCTTTCTGACATGGTTTTCCCATGTATGGAGATCTTGGGGCCCACCTGAAGGAGTTTTTTGAAGTGTTGACTGTGACACTATGGGCTTCATGTTTACTTTGGGATCTGGTGGGAAGTTCAAGTGCTATTAATTTTTCCTTGGTCTGTTTTATGCTTTGTAATGGCTTTCTGTGTGTTTTTTGGGAGTTATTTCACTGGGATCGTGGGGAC | 0.426 ratio
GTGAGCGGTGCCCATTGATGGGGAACTTAGACCCTTTAAGTAAATTGCAAACAGTTCCCCCTGTGTGAAGCATTGTCTAGCCTACCAAACTGCCTGAAACAATCGTTGACATTTCTTGTGTAATTTACAGCAGTGGATTCAGCGCTTCCAAGAATGGGAGTTGAAAAAATAATGAACTATGTTTTTTTCAAGATAAAACACACTGTGCTCTCCAGAAATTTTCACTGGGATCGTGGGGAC | 0.0607 ratio
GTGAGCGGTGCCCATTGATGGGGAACGGACACAGCCAGAGGCCATGAGTGCTCAGGAGTGCCATAAACTGTGATTTTGAGACTGATAAGGCCAGGCCTGGGTGTGTCTAAATAGCTTGTTGTTTGCCTTTTTATATTTGAGGCCTATAAAAAAATAGTGAGAAAATAGCAAGATGCCCAGGAGACAGGTGATCTGATTCAGCCAGGGGGTGGGAGGTGGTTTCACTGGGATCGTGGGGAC | 0.071 ratio
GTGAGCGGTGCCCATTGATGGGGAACAGTCTTTACAAATCAAAGAGACAGCACTGCTTTTGCTGAAGCGGGACAAAAATACCTCAAGGCACAACTCCTCCGTGCGCTTATCCCCTGCAGTGTAATCTGGGCCAATTCAATGGGTATTGTTTCCTTTACTTAGGCAGGATGATTTCCCTCAACTCTTAAGGAATCCAGGACTTTCCAGACCATTTCATCATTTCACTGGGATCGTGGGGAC | -0.0628 ratio
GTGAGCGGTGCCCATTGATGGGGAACTAATAATAATAGATCCTTATTATATTTATGGAAATCTATACTAATACTTAATATGGCCTTCTTTTCTTTGGTTTTTATAGCTGGGAAACTAAGTAATCTTGAGAAACTTATCATGAGAAACTTCTCATGTCAGCCTCACTCATATACTACCCCTTCAACTTGCTGTAGAGTGTCAAAGATTAAAATCTCACTCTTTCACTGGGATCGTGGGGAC | -0.0528 ratio

Study 2
Target: HLA class I histocompatibility antigen, C alpha chain, allele C*04:01 (Homo sapiens, UniProt P10321)
Observed: peptide-MHC binding
Molecule type: peptide
Concentration: concentration not given
Molecule | binding
MLYPLLWMF | inactive
SVMAIFYLR | inactive
MPMKGRFPI | inactive
YTIDLNDAF | inactive

Study 3
Target: PABPC1L2, full length, GST fusion (mouse, UniProt A0ABA7IW68)
Method: RNAcompete
Molecule type: RNA
Medium: in vitro
Concentration: 20 nM
Notes: 7-mer, probes averaged, single round
Relative to: mean of 7-mers
Reading: higher = stronger binding
Construct (chain): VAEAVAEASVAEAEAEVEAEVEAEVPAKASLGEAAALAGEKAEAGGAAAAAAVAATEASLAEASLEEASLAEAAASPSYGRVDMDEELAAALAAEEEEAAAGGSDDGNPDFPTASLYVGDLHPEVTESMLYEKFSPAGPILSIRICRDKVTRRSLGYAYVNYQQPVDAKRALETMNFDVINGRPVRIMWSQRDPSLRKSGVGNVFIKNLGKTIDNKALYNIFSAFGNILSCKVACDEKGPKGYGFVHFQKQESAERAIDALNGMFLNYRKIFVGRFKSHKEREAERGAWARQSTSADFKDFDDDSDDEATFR
Strand | 7-mer Z-score
UGUGUGU | -0.42
CUGUUUU | -0.514
UCUCCCG | -0.358
GCGGCCA | 0.0261
AUGAAUG | -0.0826
AUAUUGG | -0.0264
GAUAACC | -0.197
AUGGGGG | 0.495

Study 4
Target: CCNA1, cyclin fold, Cln2 fusion (human)
Method: yeast growth competition, sequencing
Medium: yeast
Notes: strong parent motif
Relative to: not given
Reading: higher = stronger binding
Starting sequence: viral docking peptide; TSVRRALFTGGSD; partner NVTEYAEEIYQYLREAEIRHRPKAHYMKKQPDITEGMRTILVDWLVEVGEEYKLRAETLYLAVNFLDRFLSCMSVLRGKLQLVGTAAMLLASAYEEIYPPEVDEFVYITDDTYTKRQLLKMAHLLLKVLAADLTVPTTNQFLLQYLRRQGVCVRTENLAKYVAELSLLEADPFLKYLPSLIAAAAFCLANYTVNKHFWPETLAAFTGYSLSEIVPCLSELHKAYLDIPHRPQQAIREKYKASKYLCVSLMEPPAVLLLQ
Change | normalised enrichment score
L7R | 0.0497
F8Q | 0.249
T9C | 0.944
G10P | 1.28
S12W | 0.751
R4G | -0.772
G10R | 0.314
R5K | 0.518
T9N | 0.953
G11N | 1.17
F8N | 0.188
G11C | 1.43
G11I | 0.753
S2Y | 0.718
A6C | 1.31
V3W | 0.291
T9H | 0.74
G10L | 0.833
S12E | 1.38
F8L | 0.315
S2V | 0.728
L7Q | 0.0142
S12L | 0.675
S2A | 0.712
S12V | 1.09

Study 5
Target: RNA binding protein fox-1 homolog 2, RRM domain, GST-SBP tag (RBFOX2, Homo sapiens, UniProt O43251-10, residues 100-194)
Method: RNA Bind-n-Seq
Molecule type: RNA
Medium: in vitro
Concentration: 365 nM
Notes: natural RNA segment, single round, ends assumed
Relative to: no-protein control
Reading: higher = stronger binding
Residues (chain): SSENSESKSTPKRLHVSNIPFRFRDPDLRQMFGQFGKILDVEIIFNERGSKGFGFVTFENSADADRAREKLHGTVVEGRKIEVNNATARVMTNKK
Strand | RBNS enrichment (R)
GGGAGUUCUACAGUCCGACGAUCUUUUAUGCAUAAGUGCUCAAAUGCAUUUCUCUUUCUUUCGAAACUAGUUAAUCGUUAAGUUGACAAUGAGAGAAUUCUCAAGUUCAUACCUGGCAGCAGGCUCCCACUGAUGGAAUUCUCGGGUGCCAA | 0.511
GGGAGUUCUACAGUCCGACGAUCAGGGCUACUUUGCUUCUUAAUGUAGGCCUACUGUGCACACCACACACUCUCUCUGAGGGACUGUAGCUAUUAGAUACUGUCCUCACACCCUCGAGCUACCAGCCAGGGCUUGGAAUUCUCGGGUGCCAA | 0.218
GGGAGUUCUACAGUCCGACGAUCGGUUCUUUUUUGAUCUGUUUUGGUCGUCCCUCCAUUCAACUGCAUCUUUUUUUUUUUUAAAAACAAAAUUAAAAGCUAUUCAAUUCUGCAUGGAAUAUAUCUGCUGUCAUUGGAAUUCUCGGGUGCCAA | 0.974
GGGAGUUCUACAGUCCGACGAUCGGAUUUUUAUCCCCACAUAACCAGGGGCCAUCUGAAAGUCAUUUUCUAGCCAGAUCAGCCACUGAGCGGUAAGCAUCAGCGCUCAGCAGAGCCUUCCGAGCAGCAUUUAGUGGAAUUCUCGGGUGCCAA | 4.63
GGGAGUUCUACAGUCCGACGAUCCCUGCCCGUGGUGAGCUCAGCCAAGACUUGGCUCUCCAUGUUCCAGCCUCCGUCUGUGACUGGGUGGGUAAGUUCGGUGGGCCCCACCCAGUGGGCUCGGCAGCCGUCACUGGAAUUCUCGGGUGCCAA | 0.534
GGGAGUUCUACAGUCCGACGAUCCAUUUCAUGCAAUGACAAAGUGCUCAGUAGUGGAAGGCAGGCUGUGACCAGUCUGCCUGCUCCUUACUAUAAUUGUGAGGAUUUGUUACUGGAACAGUACAUGGAGGCCUUGGAAUUCUCGGGUGCCAA | 0.479
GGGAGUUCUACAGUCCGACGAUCUUGCAGGGCCAUGCAGGCCGGACUCGUUGCCUUAAUUCAAGAACCUGUGUCUAUGUGUAUGUACACAUACUUCUGUCAGAGAGAGAGAGACACCCACCAUGGGUCUUUGAUGGAAUUCUCGGGUGCCAA | 0.697
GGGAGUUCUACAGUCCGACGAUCCCCUCACUCCCUUUUUUGUCAACCCCAUCUGUAGCCUCUUCCUCUACUCAGGCAGUCGACCCGCCACGAUGAGAAGUGGGACCAGCAGAGGGCGCCAACUUCAGGAGUCCUGGAAUUCUCGGGUGCCAA | 0.414

Mixed results
Compound | target | assay | setting | measurement | result
Cc1cc2c(-c3ccco3)cnc(N[C@H]3CCN(C)C[C@@H]3C(=O)NC3CCCCC3)c2[nH]c1=O | Muscarinic acetylcholine receptor M3 (CHRM3, Homo sapiens, UniProt P20309) | ligand displacement | 10 µM | inhibition | 28.9%

Repeated from above (study 4):
Change | normalised enrichment score
G10R | 0.314
G11C | 1.43
L7R | 0.0497
S12W | 0.751
A6C | 1.31
S2V | 0.728
